Published values collected from several papers.
Several values in a cell are separate wells, animals, samples, runs or records. ± gives the spread as reported.

With `Fc1cccc(SSc2cccc(F)c2)c1` the IC50 was 4.8 ± 0.1 µM (tubulin).
`COc1ccc2cc3[n+](cc2c1OC)CCc1cc2c(cc1-3)OCO2` gave an IC50 of 20 µM (class I HDAC; enzyme activity; bovine heart lysate).
The IC50 of `Cc1cccc(C)c1NC(=O)C1CCCCN1Cc1ccccc1` (centres unmarked) is reported as 146 ± 14.9 µM (sodium channel Nav1.4 (frog); tonic block of sodium current, vaseline-gap voltage clamp; Pelophylax lessonae semitendinosus fibres; 10 °C).
For `[Ca+2]`, the IC50 was 0.357 µM and 0.366 µM (cone cGMP-gated channel, Morone saxatilis; ion current, inside-out patch clamp; after EDTA/EGTA, -40 mV, with: calmodulin 200 nM, cGMP 60 µM).
For `NC[C@@H]1O[C@H](O[C@H]2[C@@H](O)[C@H](O[C@@H]3[C@@H](O)[C@H](N)C[C@H](N)[C@H]3O[C@H]3O[C@H](CO)[C@@H](O)[C@H](O)[C@H]3N)O[C@@H]2CO)[C@H](N)[C@@H](O)[C@@H]1O`, the IC50 was 311 ± 13.3 µM (HIV-1 nucleocapsid protein-SL3 RNA complex; complex dissociation, ESI-FTMS; preformed complex ~3.5 µM).
`COc1ccc(/C=C/c2cc(O)cc(O[C@@H]3O[C@H](CO)[C@@H](O)[C@H](O)[C@H]3O)c2)cc1O` gave an IC50 of > 25 µg/mL (iNOS, mouse; NO production, inhibitor; RAW264.7; with: LPS).
For `O=c1c(O)c(-c2ccc(O)c(O)c2)oc2cc(O)cc(O)c12`, the IC50 was 10.4 µM (CYP3A; inhibitor; pooled human liver microsomes; no preincubation).
With `O=C1C[C@@H](c2ccc(O)c(O)c2)Oc2cc(O)cc(O)c21` the IC50 was 66.1 ± 20.2 µM (human intestinal sulfotransferases; DHEA sulfation, radiometric; human intestine cytosol; with: DHEA 2 µM).
The IC50 of `O=C1CCc2ccccc2O1` is reported as 69.5 µM (cysteine peptide Ac-RFAACAA-COOH; peptide depletion, DPRA RapidFire-MS/MS; 24 h, pH 7.5, room temperature, with: 5.0 µM cysteine peptide).
With `Clc1ccc(SSc2ccc(Cl)cc2)cc1` the IC50 was 4.6 ± 0.7 µM (tubulin).
For `O=C(CCCCCCC(=O)Nc1ccccc1)NO`, the IC50 was 0.8 µM (histone deacetylase, mouse; inhibitor; GL261 cell nuclear extract).
With `Fc1ccc(SSc2ccc(F)cc2)cc1` the IC50 was 1.9 ± 0.06 µM (tubulin).
For `CC(C=O)Cc1ccc(C(C)(C)C)cc1` (centres unmarked), the IC50 was 35.8 µM (cysteine peptide Ac-RFAACAA-COOH; peptide depletion, DPRA RapidFire-MS/MS; 24 h, pH 7.5, room temperature, with: 5.0 µM cysteine peptide).
With `O=C(O)[C@H]1O[C@@H](Oc2cc3oc(-c4ccccc4)cc(=O)c3c(O)c2O)[C@H](O)[C@@H](O)[C@@H]1O` the IC50 was 52 µM (class I HDAC; enzyme activity; bovine heart lysate).
`CC(C)(O)C(O)Cc1cc(/C=C/c2cc(O)cc(O)c2)ccc1O` (centres unmarked) gave an IC50 of > 25 µg/mL (iNOS, mouse; NO production, inhibitor; RAW264.7; with: LPS).
`O=C(O)/C=C/c1ccc(O)c(O)c1` has an IC50 of 81 µM (class I HDAC; enzyme activity; bovine heart lysate).
`Cc1cccc(C)c1NC(=O)C1CCCN(Cc2ccccc2)C1` (centres unmarked) gave an IC50 of 38.5 ± 1.5 µM (sodium channel Nav1.4 (frog); tonic block of sodium current, vaseline-gap voltage clamp; Pelophylax lessonae semitendinosus fibres; 10 °C).
`CS(=O)(=O)c1ccc(Oc2cc(F)cc(C#N)c2)c2c1[C@H](O)C(F)(F)C2` has an IC50 of 0.042 µM (HIF-2 (human); reporter gene, inhibitor; 786-O, HRE luciferase reporter; 24 h).
The IC50 of `CCCCCCCC(=O)O` is reported as 331 µM (cysteine peptide Ac-RFAACAA-COOH; peptide depletion, DPRA RapidFire-MS/MS; 24 h, pH 7.5, room temperature, with: 5.0 µM cysteine peptide).
With `CC[N+](CC)(CC)CC` the IC50 was 170 µM (acetylcholine receptor channel; endplate current, channel blocker, voltage clamp; Lithobates pipiens, frog sartorius muscle; membrane potential -150 mV).
`Cc1cc(C)c(C)c(NC(=O)C2CCN(Cc3ccccc3)C2)c1C` (centres unmarked) has an IC50 of 17.2 ± 1.2 µM (sodium channel Nav1.4 (frog); tonic block of sodium current, vaseline-gap voltage clamp; Pelophylax lessonae semitendinosus fibres; 10 °C).
The IC50 of `O=c1cc(-c2ccc(O)cc2)oc2cc(O)cc(O)c12` is reported as 27 µM (class I HDAC; enzyme activity; bovine heart lysate).
The IC50 of `c1ccc2c(NCCCn3ccnc3)ncnc2c1` is reported as 66 µM (Fe-SOD (Trypanosoma cruzi); inhibitor; Trypanosoma cruzi; epimastigotes).
`CC(O)C(=O)O` (centres unmarked) — result for IC50: “inactive” (cysteine peptide Ac-RFAACAA-COOH; peptide depletion, DPRA RapidFire-MS/MS; 24 h, pH 7.5, room temperature, with: 5.0 µM cysteine peptide).
With `O=c1c(O)c(-c2ccc(O)cc2)oc2cc(O)cc(O)c12` the IC50 was 39 µM (class I HDAC; enzyme activity; bovine heart lysate).
`Cc1cccc(C)c1NC(=O)C1CN(Cc2ccccc2)CCN1` (centres unmarked) gave an IC50 of 31.5 ± 0.8 µM (sodium channel Nav1.4 (frog); tonic block of sodium current, vaseline-gap voltage clamp; Pelophylax lessonae semitendinosus fibres; 10 °C).
For `C=C(C)[C@@H]1CC=C(C=O)CC1`, the IC50 was 116 µM (cysteine peptide Ac-RFAACAA-COOH; peptide depletion, DPRA RapidFire-MS/MS; 24 h, pH 7.5, room temperature, with: 5.0 µM cysteine peptide).
With `NC[C@@H]1O[C@H](O[C@H]2[C@@H](O)[C@H](O[C@@H]3[C@@H](O)[C@H](N)C[C@H](N)[C@H]3O[C@H]3O[C@H](CN)[C@@H](O)[C@H](O)[C@H]3N)O[C@@H]2CO)[C@H](N)[C@@H](O)[C@@H]1O` the IC50 was 31.1 ± 2.8 µM (HIV-1 nucleocapsid protein-SL3 RNA complex; complex dissociation, ESI-FTMS; preformed complex ~3.5 µM).
With `CC(C)(O)C(O)Cc1c(O)cc(/C=C/c2ccccc2)cc1O` (centres unmarked) the IC50 was > 25 µg/mL (iNOS, mouse; NO production, inhibitor; RAW264.7; with: LPS).
`CC(C=O)Cc1ccc(C(C)C)cc1` (centres unmarked) has an IC50 of 29.1 µM (cysteine peptide Ac-RFAACAA-COOH; peptide depletion, DPRA RapidFire-MS/MS; 24 h, pH 7.5, room temperature, with: 5.0 µM cysteine peptide).
`O=c1cc(-c2ccc(O)c(O)c2)oc2cc(O)cc(O)c12` gave an IC50 of 17 µM (class I HDAC; enzyme activity; bovine heart lysate).
For `CCCCCCC#CC(=O)OC`, the IC50 was 351 µM (cysteine peptide Ac-RFAACAA-COOH; peptide depletion, DPRA RapidFire-MS/MS; 24 h, pH 7.5, room temperature, with: 5.0 µM cysteine peptide).
`O=C1c2c(O)cc(O)cc2O[C@H](c2cc(O)c(O)c(O)c2)[C@H]1O` gave an IC50 of 36 µM (class I HDAC; enzyme activity; bovine heart lysate).
Under IC50, `CCOC(=O)c1ccccc1C(=O)OCC` is recorded as “inactive” (cysteine peptide Ac-RFAACAA-COOH; peptide depletion, DPRA RapidFire-MS/MS; 24 h, pH 7.5, room temperature, with: 5.0 µM cysteine peptide).
For `Fc1ccccc1SSc1ccccc1F`, the IC50 was 2.4 ± 0.3 µM (tubulin).

Excerpt of the above:
`CC(C)(O)C(O)Cc1cc(/C=C/c2cc(O)cc(O)c2)ccc1O` (centres unmarked) gave an IC50 of > 25 µg/mL (iNOS, mouse; NO production, inhibitor; RAW264.7; with: LPS).
`CC(O)C(=O)O` (centres unmarked) — result for IC50: “inactive” (cysteine peptide Ac-RFAACAA-COOH; peptide depletion, DPRA RapidFire-MS/MS; 24 h, pH 7.5, room temperature, with: 5.0 µM cysteine peptide).
With `Clc1ccc(SSc2ccc(Cl)cc2)cc1` the IC50 was 4.6 ± 0.7 µM (tubulin).
With `O=c1c(O)c(-c2ccc(O)cc2)oc2cc(O)cc(O)c12` the IC50 was 39 µM (class I HDAC; enzyme activity; bovine heart lysate).
